Measured values pooled from the literature.
Numbered parts are unrelated; each lists some results of a single study.

Block 1
Target: Protein max, full length (MAX, Homo sapiens, UniProt P61244-2, residues 1-151)
Method: protein-binding microarray
Form: double-stranded DNA, one strand shown
Matrix: in vitro
Tested at: not given
Setting: k-mer, scored over probes, only values ≥0.25
Direction: higher = stronger binding
Oligonucleotide	E-score
ACCGTGCG	0.259
ACGACATG	0.272
CATGTCCA	0.263
CACGATGC	0.359
CCTCGTGA	0.462

Block 2
Target: Replicase polyprotein 1ab, nsp13 helicase (rep, Severe acute respiratory syndrome coronavirus 2, UniProt P0DTD1)
Action: inhibitor
Tested at: 20 µM
Compound	inhibition [%]
Nc1ncnc2n[nH]c(Nc3ccc(F)cc3)c12	3.03
COc1cc2/c(=N/c3ccc(Br)cc3F)nc[nH]c2cc1OCC1CCN(C)CC1	-1.49
CN1CCN(c2cc3c(cc2F)c(=O)c(C(=O)O)cn3-c2ccc(F)cc2)CC1	4.28
O=C(NCc1ccccn1)Nc1nnc(-c2ccco2)o1	-0.32
COc1cccc2c1c(O)c(C(=O)N(C)c1ccc(C(F)(F)F)cc1)c(=O)n2C	0.37
C#CCN1C(C)=C(C(=O)OC)C(c2cccc([N+](=O)[O-])c2)C(C(=O)OCC)=C1C (stereo not drawn)	-0.47
C=CCN1CC[C@]23c4c5ccc(O)c4O[C@H]2[C@@H](OCCOCCOCCOCCOCCOCCOCCOC)CC[C@@]3(O)[C@H]1C5	2.74
NP(N)(=O)NC(=O)c1ccc(F)cc1	2.99
COc1ccc(NC(=O)c2ccc(C(=N)N(C)C)cc2)c(C(=O)Nc2ccc(Cl)cn2)c1	10.3
CCOC(=O)c1ccccc1OC(=O)CCCCCCCC(=O)Oc1ccccc1C(=O)OCC	-6.82
Nc1ccc(/N=N/c2ccccc2)c(N)n1	3.58
O/N=C/c1ccc(-c2ccc(O)c(F)c2)c(Cl)c1O	-1.34
CC(=O)N[C@H](Cc1ccc2ccccc2c1)C(=O)N[C@H](Cc1ccc(Cl)cc1)C(=O)N[C@H](Cc1cccnc1)C(=O)N[C@@H](CO)C(=O)N[C@@H](Cc1ccc(O)cc1)C(=O)N[C@H](CCCNC(N)=O)C(=O)N[C@@H](CC(C)C)C(=O)N[C@@H](CCCNC(=N)N)C(=O)N1CCC[C@H]1C(=O)N[C@H](C)C(N)=O	9.54
CCOc1ccc(Cc2nccc3cc(OCC)c(OCC)cc23)cc1OCC	-34.6
Nc1nccc(Oc2ccc(NC(=O)c3c[nH]cc(-c4ccc(F)cc4)c3=O)cc2F)c1Cl	4.01
Cc1ccccc1N1C(=O)c2cc(S(N)(=O)=O)c(Cl)cc2NC1C (stereo not drawn)	4.29
C#C[C@]1(O)C=C[C@H]2[C@@H]3CCC4=CC(=O)CC[C@@H]4[C@H]3CC[C@@]21CC	9.41
CCCn1cnc2c1c(=O)n(CCCCC(C)=O)c(=O)n2C	3.99
C[C@H](NC(=O)C(C)(C)Oc1ccc(C(F)(F)F)cn1)[C@@H](Cc1ccc(Cl)cc1)c1cccc(C#N)c1	-4.2
N#CCNC(=O)c1ccc(-c2ccnc(Nc3ccc(N4CCOCC4)cc3)n2)cc1	47.7
N#Cc1ccc(N2CCN(C(=O)COc3ccc4[nH]cc(CCN)c4c3)CC2)cc1	5.15
CN1[C@H]2C[C@H](OC(=O)[C@H](CO)c3ccccc3)C[C@@H]1[C@@H](O)C2 (racemic)	-1.48
Cc1ccc(S(=O)(=O)Nc2ccc3c(c2)c(C(=O)C(F)(F)F)cn3CC(=O)N[C@@H](CC(C)C)C(=O)O)cc1	3.62
O=C(O)CCCC[C@@H]1SC[C@@H]2NC(=O)N[C@@H]21	3.36
NC(CO)(CO)CO	9.03

Block 3
Target: Phosphate system positive regulatory protein PHO4, full length, GST-tagged (PHO4, Saccharomyces cerevisiae, UniProt P07270, residues 1-312)
Method: competition protein-binding microarray
Form: double-stranded DNA, one strand shown
Matrix: in vitro
Tested at: 2 µM
Setting: whole 60-bp probe, lowest competitor level
With: Cbf1 competitor, 0.05 µM
Direction: higher = stronger binding
Constant ends, left off below: … GTCTTGATTCGCTTGACGCTGCTG
Residues (chain): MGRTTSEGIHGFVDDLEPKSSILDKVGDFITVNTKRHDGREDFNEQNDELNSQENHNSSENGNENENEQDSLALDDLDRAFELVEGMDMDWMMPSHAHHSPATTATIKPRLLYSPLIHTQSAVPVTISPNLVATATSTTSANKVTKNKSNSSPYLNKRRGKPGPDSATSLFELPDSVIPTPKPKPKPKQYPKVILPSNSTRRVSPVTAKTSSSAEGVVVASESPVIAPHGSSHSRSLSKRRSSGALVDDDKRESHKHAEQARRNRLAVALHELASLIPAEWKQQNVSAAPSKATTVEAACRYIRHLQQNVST
Oligonucleotide	fluorescence intensity
CCGAGTATGTATCCACACGTTGGTACAGGGCGCCAG	9310 a.u.
TGTGCTTGGTTTGGAAACGTGCAAACACCTTACCTG	11700 a.u.
GCTCATAAAACCATGCGCGTGTTTTTCTTCCACGGC	10000 a.u.
TTAGAGTAGGGAGAGAATGTGACGAAGCCCTTTGTG	4750 a.u.
CGGGGTTAAGTTTGCCTTGTGGGTGGCTTGCAGCAG	6290 a.u.
CTTCTGTAAATTTGAGTCGTGGGTGGACGCGCCCCG	6650 a.u.
CAGGCATAGCCCCGTCACGTTCTACGATAAGAACTT	10700 a.u.
TCCTCTCCAATGGACACCGTGACGGAATCAGAAATG	6410 a.u.

Block 4
Target: Replicase polyprotein 1ab, main protease (rep, Severe acute respiratory syndrome coronavirus 2, UniProt P0DTD1)
Read-out: enzyme activity
Action: inhibitor
Tested at: 20 µM
Setting: primary screen
SMILES	inhibition [%]
CC(C)Nc1cccnc1N1CCN(C(=O)c2cc3cc(NS(C)(=O)=O)ccc3[nH]2)CC1.CS(=O)(=O)O	82
Cc1ccc(-n2sc3ccccc3c2=O)cc1	101
COc1ccc2[n-]c([S@@+]([O-])Cc3ncc(C)c(OC)c3C)nc2c1.COc1ccc2[n-]c([S@@+]([O-])Cc3ncc(C)c(OC)c3C)nc2c1.O.O.O.[Mg+2]	94.7
NC(CN(O)N=O)C(=O)O (stereo not drawn)	21

Block 5
Target: Fragile X messenger ribonucleoprotein 1, C-terminal low-complexity region (Fmr1, Mus musculus, UniProt P35922)
Method: RNA Bind-n-Seq
Form: RNA
Matrix: in vitro
Tested at: 200 nM
Setting: whole 134-nt RNA, ends assumed
With: 150 mM LiCl
Reference: input library
Direction: higher = stronger binding
Each molecule: 7-deaza-guanosine replaces G
Constant ends, left off below: GGGAGUUCUACAGUCCGACGAUC … UGGAAUUCUCGGGUGUCAAGG
Oligonucleotide	log2 enrichment
CCUGUGCUACACAUCGUAUGUACCGAAUCGGGGUUUUUGGGGUUUUUUUGGGGUUUGGGGAAAGUAUUAUGUUACGCCGUUCGGAUCUGC	-0.873
GUCCUGUGCUACACAUCGUAUGUACCGAAUCGGGGCCCCCGGCCCCCGGGGCCCCCGGGAAAGUAUUAUGUUACGCCGUUCGGAUCUGCA	-3.14
CUCAAGUCCUGUGCUACACAUCGUAUGUACCGAAUCGGUGGAGGAAAAAAAGGAAAGUAUUAUGUUACGCCGUUCGGAUCUGCACUUCCA	-0.0986
UCCUGUGCUACACAUCGUAUGUACCGAAUCGGAAAAAAAGGAAAAAAAGGAAAAAAAGGGAAAGUAUUAUGUUACGCCGUUCGGAUCUGC	-0.781
CAAGUCCUGUGCUACACAUCGUAUGUACCGAAUCGGGUGGGUGGGUUUUUUUGGGAAAGUAUUAUGUUACGCCGUUCGGAUCUGCACUUC	-0.802
UAACUUUAGAGGAGGAUCUGAUGGAUAUGGCAGUGGACGUGGAUUUGGGGAUGGCUAUAAUGGGUAUGGAGGAGAACCUGGAGGUGGCAA	0.317
UCAAGUCCUGUGCUACACAUCGUAUGUACCGAAUCGGGGCCGGGCCGGGGCCGGGAAAGUAUUAUGUUACGCCGUUCGGAUCUGCACUUC	0.0318
UCAAGUCCUGUGCUACACAUCGUAUGUACCGAAUCGGAAAGGAAAAAAAGGAGGAAAGUAUUAUGUUACGCCGUUCGGAUCUGCACUUCC	-0.241

Block 6
Cell line: HEK-293T
Read-out: pseudovirus infection
Organism: VSV pseudotyped with SARS-CoV-2 spike
Tested at: 10 µM
Time: 16 h
Reference: vehicle-treated
Compound	GFP-positive cells
CC(=O)OC(C)C[N+](C)(C)C (stereo not drawn)	110%
CC(C[N+](C)(C)C)OC(N)=O (stereo not drawn)	85.3%
Cc1ccsc1C(=CCCN1CCC[C@@H](C(=O)O)C1)c1sccc1C	82%
CN(N=O)C(=O)N[C@@H](C=O)[C@@H](O)[C@H](O)[C@H](O)CO	84.2%

A few entries again (block 2):
Compound	inhibition [%]
NC(CO)(CO)CO	9.03
O=C(NCc1ccccn1)Nc1nnc(-c2ccco2)o1	-0.32
NP(N)(=O)NC(=O)c1ccc(F)cc1	2.99
CCOC(=O)c1ccccc1OC(=O)CCCCCCCC(=O)Oc1ccccc1C(=O)OCC	-6.82
